Measured values from different studies.
Protocols differ between the studies behind these lines.

Structure (SMILES)	organism	test	test system	conditions	MIC
CN[C@H](CC(C)C)C(=O)N[C@H]1C(=O)N[C@@H](CC(N)=O)C(=O)N[C@H]2C(=O)N[C@H]3C(=O)N[C@H](C(=O)N[C@H](C(=O)O)c4cc(O)cc(O)c4-c4cc3ccc4O)[C@H](O)c3ccc(c(Cl)c3)Oc3cc2cc(c3O[C@@H]2O[C@H](CO)[C@@H](O)[C@H](O)[C@H]2O[C@H]2C[C@](C)(N)[C@H](O)[C@H](C)O2)Oc2ccc(cc2Cl)[C@H]1O	Bordetella bronchiseptica	–	ATCC 10580	16 h	4 mg/L
N=C(N)c1cccc(OCc2ccc(COc3cccc(C(=N)N)c3)cc2)c1	Escherichia coli	–	BW25113	compound alone, novobiocin checkerboard	> 200 mg/L
CCCCCCCCCC(=O)N[C@@H](Cc1c[nH]c2ccccc12)C(=O)N[C@H](CC(N)=O)C(=O)N[C@@H](CC(=O)O)C(=O)N[C@@H]1C(=O)NCC(=O)N[C@@H](CCCN)C(=O)N[C@@H](CC(=O)O)C(=O)N[C@H](C)C(=O)N[C@@H](CC(=O)O)C(=O)NCC(=O)N[C@H](CO)C(=O)N[C@@H]([C@H](C)CC(=O)O)C(=O)N[C@@H](CC(=O)c2ccccc2N)C(=O)O[C@@H]1C	Staphylococcus aureus	–	SH1000	together with: phosphatidylethanolamine, molar ratio 2	1 mg/L
CC[C@H](C)[C@H](NC(=O)[C@H](CCCCN)NC(=O)[C@H](CCC(=O)O)NC(=O)[C@H](CCCCN)NC(=O)[C@H](CO)NC(=O)[C@H](CCCCN)NC(=O)[C@H](CCCNC(=N)N)NC(=O)[C@H](Cc1ccccc1)NC(=O)[C@H](Cc1ccccc1)NC(=O)[C@H](CC(=O)O)NC(=O)CNC(=O)[C@H](CC(C)C)NC(=O)[C@@H](N)CC(C)C)C(=O)NCC(=O)N[C@@H](CCCCN)C(=O)N[C@@H](CCC(=O)O)C(=O)N[C@@H](Cc1ccccc1)C(=O)N[C@@H](CCCCN)C(=O)N[C@@H](CCCNC(=N)N)C(=O)N[C@H](C(=O)N[C@H](C(=O)N[C@@H](CCC(N)=O)C(=O)N[C@@H](CCCNC(=N)N)C(=O)N[C@H](C(=O)N[C@@H](CCCCN)C(=O)N[C@@H](CC(=O)O)C(=O)N[C@@H](Cc1ccccc1)C(=O)N[C@@H](CC(C)C)C(=O)N[C@@H](CCCNC(=N)N)C(=O)N[C@@H](CC(N)=O)C(=O)N[C@@H](CC(C)C)C(=O)N[C@H](C(=O)N1CCC[C@H]1C(=O)N[C@@H](CCCNC(=N)N)C(=O)N[C@H](C(=O)N[C@@H](CCC(=O)O)C(=O)N[C@@H](CO)C(=O)O)[C@@H](C)O)C(C)C)[C@@H](C)CC)C(C)C)[C@@H](C)CC	Bordetella bronchiseptica	broth microdilution	ATCC 10580	–	28.5 µM
N=C(N)c1ccc(OCc2ccccc2COc2ccc(C(=N)N)cc2)cc1	Escherichia coli	–	BW25113	in combination, lowest-FICI combination, together with: vancomycin	> 200 mg/L
CC1(C)S[C@@H]2[C@H](NC(=O)[C@H](N)c3ccccc3)C(=O)N2[C@H]1C(=O)O	Enterobacter cloacae	–	BNCC 185928	–	64 mg/L
CC1(C)SC2C(NC(=O)C(NC(=O)C3=C(O)C(Cc4ccccc4)NC3=O)c3ccccc3)C(=O)N2C1C(=O)O (centres unmarked)	Escherichia coli	broth microdilution	BW25113 wild type	18 h	25 mg/L
N=C(N)c1ccc(OCc2ccc(Br)cc2COc2ccc(C(=N)N)cc2)cc1	Escherichia coli	–	552100	compound alone	> 200 mg/L
Cc1cc(-c2cn[nH]c2-c2cccc(OCc3cccc(C#N)c3)c2)cc(C)n1	Enterobacter cloacae	broth microdilution	ATCC BAA-2468	–	4 mg/L
CNC(C)C1CCC(N)C(OC2C(N)CC(N)C(OC3OCC(C)(O)C(NC)C3O)C2O)O1 (centres unmarked)	Pseudomonas aeruginosa	–	clinical isolate RKI-No_613/16	–	8 mg/L
CC(C)C[C@@H]1NC(=O)[C@@H](Cc2ccccc2)NC(=O)[C@H](CCN)NC(=O)[C@@H](NC(=O)[C@H](CCN)NC(=O)[C@@H](N)[C@@H](C)O)CCNC(=O)[C@H]([C@@H](C)O)NC(=O)[C@H](CCN)NC(=O)[C@H](CCN)NC1=O	Escherichia coli	checkerboard	BW25113	compound alone	> 200 mg/L
Cc1ccc(CCC(=O)Nc2nnc(S(N)(=O)=O)s2)cc1	Bacteroides fragilis	–	HM-711	–	> 784 µM
N=C(N)c1ccc(OCCCCCOc2ccc(C(=N)N)cc2)cc1	Escherichia coli	–	BW25113	compound alone, novobiocin checkerboard	200 mg/L
C[C@@H](O)[C@H]1C(=O)N2C(C(=O)O)=C(S[C@@H]3CN[C@H](C(=O)N(C)C)C3)[C@H](C)[C@H]12	Morganella morganii	broth microdilution	clinical isolate RKI 659/13	–	≤ 0.5 mg/L
CNC(C)C1CCC(N)C(OC2C(N)CC(N)C(OC3OCC(C)(O)C(NC)C3O)C2O)O1 (centres unmarked)	Enterobacter cloacae	–	BNCC 185928	–	4 mg/L
C[C@H]1COc2c(N3CCN(C)CC3)c(F)cc3c(=O)c(C(=O)O)cn1c23	Enterobacter cloacae	agar dilution	CDC 1000654	–	32 mg/L
CC1(C)SC2C(NC(=O)C(NC(=O)C3=C(O)C4(CC4)NC3=O)c3ccccc3)C(=O)N2C1C(=O)O (centres unmarked)	Escherichia coli	broth microdilution	ATCC 25922 wild type	no clavulanic acid	25 mg/L
CC1(C)S[C@@H]2[C@H](NC(=O)[C@H](N)c3ccc(O)cc3)C(=O)N2[C@H]1C(=O)O	Enterobacter cloacae	–	BNCC 185928	–	4 mg/L
CC1(C)S[C@@H]2[C@H](NC(=O)[C@H](N)c3ccccc3)C(=O)N2[C@H]1C(=O)O	Bordetella bronchiseptica	–	ATCC 10580	16 h	32 mg/L
CO/N=C(\C(=O)N[C@@H]1C(=O)N2C(C(=O)O)=CCS[C@H]12)c1csc(N)n1	Enterobacter cloacae	–	BNCC 185928	–	4 mg/L
Cc1c(CN(C)C(=O)/C=C/c2cnc3c(c2)CC(NC(=O)OC(C)(C)C)C(=O)N3)oc2ccccc12 (centres unmarked)	Enterobacter cloacae	broth microdilution	ATCC 29893	–	> 32 mg/L
CC(=O)NC[C@H]1CN(c2ccc(N3CCOCC3)c(F)c2)C(=O)O1	Bacteroides fragilis	–	HM-711	–	< 2.96 µM
CO[C@H]1/C=C/O[C@@]2(C)Oc3c(C)c(O)c4c(c3C2=O)C2=NC3(CCN(CC(C)C)CC3)NC2=C(NC(=O)/C(C)=C\C=C\[C@H](C)[C@H](O)[C@@H](C)[C@@H](O)[C@@H](C)[C@H](OC(C)=O)[C@@H]1C)C4=O	Mycobacteroides abscessus	–	ATCC 19977	single-strain MIC	2030 mg/L

Some of these lines once more:
Structure (SMILES)	organism	test	test system	conditions	MIC
Cc1c(CN(C)C(=O)/C=C/c2cnc3c(c2)CC(NC(=O)OC(C)(C)C)C(=O)N3)oc2ccccc12 (centres unmarked)	Enterobacter cloacae	broth microdilution	ATCC 29893	–	> 32 mg/L
